Published values gathered from unrelated publications.
Each numbered part is a random draw from the data of one study; scales do not carry over between parts. “And” joins repeats or separate records; there may be more than shown.
UniProt P36507, sequence (whole entry, looked up): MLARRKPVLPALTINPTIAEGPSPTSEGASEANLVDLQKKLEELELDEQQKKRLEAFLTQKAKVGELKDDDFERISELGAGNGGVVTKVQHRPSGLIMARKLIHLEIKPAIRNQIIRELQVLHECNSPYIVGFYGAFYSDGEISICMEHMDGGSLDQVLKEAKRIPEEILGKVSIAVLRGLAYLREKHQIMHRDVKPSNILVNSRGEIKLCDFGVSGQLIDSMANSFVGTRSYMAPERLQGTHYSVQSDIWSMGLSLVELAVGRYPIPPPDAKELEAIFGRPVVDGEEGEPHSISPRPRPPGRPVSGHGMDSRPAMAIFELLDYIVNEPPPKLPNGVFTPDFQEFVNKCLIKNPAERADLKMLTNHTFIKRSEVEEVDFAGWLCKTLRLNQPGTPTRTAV
UniProt Q8N4C8, sequence (whole entry, looked up): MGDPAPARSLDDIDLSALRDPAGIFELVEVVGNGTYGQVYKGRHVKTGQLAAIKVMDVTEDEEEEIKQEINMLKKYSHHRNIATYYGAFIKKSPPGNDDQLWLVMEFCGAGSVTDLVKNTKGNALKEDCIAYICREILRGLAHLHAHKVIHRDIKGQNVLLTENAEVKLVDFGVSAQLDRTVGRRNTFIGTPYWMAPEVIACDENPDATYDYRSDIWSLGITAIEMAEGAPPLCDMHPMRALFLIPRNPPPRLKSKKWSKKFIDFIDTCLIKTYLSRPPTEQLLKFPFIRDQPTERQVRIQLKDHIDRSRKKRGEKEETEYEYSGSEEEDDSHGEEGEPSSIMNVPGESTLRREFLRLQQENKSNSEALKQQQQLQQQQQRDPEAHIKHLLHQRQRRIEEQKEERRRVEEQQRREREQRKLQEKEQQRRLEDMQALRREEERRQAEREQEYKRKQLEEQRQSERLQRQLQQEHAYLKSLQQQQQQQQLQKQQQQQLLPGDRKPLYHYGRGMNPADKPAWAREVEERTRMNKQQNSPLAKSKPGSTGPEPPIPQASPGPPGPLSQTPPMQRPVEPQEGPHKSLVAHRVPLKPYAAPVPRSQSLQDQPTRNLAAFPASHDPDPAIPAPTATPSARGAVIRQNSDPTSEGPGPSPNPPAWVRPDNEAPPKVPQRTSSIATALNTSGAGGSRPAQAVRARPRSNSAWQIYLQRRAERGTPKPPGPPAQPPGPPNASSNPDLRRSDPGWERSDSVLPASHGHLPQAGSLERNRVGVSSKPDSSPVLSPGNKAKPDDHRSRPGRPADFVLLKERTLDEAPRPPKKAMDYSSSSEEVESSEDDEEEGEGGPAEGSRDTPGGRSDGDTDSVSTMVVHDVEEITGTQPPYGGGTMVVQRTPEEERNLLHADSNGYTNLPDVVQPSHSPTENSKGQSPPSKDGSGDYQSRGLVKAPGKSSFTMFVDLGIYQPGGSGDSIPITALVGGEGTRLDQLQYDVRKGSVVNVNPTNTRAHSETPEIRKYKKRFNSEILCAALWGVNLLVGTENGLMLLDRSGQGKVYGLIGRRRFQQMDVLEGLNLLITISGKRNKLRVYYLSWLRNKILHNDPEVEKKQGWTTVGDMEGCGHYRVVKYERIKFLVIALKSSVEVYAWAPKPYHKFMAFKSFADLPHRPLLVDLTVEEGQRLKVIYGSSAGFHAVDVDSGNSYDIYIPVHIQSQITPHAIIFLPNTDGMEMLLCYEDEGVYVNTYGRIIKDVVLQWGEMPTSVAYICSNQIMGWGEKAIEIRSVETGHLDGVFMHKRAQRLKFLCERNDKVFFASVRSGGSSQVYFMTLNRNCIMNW
UniProt Q9NRM7, sequence (whole entry, looked up): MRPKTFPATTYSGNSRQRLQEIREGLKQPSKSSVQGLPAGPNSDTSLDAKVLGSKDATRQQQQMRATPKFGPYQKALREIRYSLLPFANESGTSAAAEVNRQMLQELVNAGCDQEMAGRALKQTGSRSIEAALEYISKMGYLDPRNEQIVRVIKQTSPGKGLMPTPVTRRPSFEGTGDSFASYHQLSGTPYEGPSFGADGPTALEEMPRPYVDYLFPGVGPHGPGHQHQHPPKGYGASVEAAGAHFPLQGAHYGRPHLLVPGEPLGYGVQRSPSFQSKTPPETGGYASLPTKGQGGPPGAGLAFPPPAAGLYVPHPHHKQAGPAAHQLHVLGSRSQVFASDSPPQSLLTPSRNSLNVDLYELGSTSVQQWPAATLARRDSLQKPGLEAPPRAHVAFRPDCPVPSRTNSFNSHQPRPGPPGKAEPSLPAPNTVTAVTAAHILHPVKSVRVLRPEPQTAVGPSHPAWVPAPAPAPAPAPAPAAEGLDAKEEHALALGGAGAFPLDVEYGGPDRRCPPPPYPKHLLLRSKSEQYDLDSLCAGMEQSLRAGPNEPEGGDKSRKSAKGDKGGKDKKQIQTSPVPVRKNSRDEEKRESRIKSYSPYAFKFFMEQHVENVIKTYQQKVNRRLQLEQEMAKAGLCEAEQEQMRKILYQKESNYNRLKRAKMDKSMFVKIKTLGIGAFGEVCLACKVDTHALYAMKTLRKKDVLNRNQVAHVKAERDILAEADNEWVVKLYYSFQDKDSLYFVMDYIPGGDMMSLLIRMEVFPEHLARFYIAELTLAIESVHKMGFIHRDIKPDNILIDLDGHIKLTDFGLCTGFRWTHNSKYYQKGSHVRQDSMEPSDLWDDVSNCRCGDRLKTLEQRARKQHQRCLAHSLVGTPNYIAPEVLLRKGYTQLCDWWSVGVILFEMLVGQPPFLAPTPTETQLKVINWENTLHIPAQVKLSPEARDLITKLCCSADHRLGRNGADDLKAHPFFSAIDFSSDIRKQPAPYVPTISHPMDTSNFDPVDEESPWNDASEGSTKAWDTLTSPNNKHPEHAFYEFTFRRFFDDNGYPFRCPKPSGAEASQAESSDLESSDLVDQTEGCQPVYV
UniProt Q9NRH2, sequence (whole entry, looked up): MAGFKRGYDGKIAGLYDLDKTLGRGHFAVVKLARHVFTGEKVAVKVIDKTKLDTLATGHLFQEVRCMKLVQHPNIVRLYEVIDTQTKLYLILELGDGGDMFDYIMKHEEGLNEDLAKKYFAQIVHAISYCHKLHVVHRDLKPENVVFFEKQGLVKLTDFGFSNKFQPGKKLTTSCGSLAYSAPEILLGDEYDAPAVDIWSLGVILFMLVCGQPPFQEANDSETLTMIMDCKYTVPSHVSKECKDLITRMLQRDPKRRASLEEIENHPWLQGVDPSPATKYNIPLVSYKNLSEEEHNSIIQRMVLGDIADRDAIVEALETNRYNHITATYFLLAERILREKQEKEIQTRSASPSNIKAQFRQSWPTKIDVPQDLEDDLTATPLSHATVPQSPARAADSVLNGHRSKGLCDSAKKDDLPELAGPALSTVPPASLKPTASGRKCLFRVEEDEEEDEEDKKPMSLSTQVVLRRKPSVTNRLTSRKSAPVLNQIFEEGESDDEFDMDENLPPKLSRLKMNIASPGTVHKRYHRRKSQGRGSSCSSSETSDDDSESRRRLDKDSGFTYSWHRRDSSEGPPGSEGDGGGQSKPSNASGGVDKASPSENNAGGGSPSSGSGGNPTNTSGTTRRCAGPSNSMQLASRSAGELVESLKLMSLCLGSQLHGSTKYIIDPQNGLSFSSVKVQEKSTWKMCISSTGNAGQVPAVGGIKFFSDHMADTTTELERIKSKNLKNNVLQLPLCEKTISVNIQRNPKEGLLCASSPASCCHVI
UniProt Q15349, sequence (whole entry, looked up): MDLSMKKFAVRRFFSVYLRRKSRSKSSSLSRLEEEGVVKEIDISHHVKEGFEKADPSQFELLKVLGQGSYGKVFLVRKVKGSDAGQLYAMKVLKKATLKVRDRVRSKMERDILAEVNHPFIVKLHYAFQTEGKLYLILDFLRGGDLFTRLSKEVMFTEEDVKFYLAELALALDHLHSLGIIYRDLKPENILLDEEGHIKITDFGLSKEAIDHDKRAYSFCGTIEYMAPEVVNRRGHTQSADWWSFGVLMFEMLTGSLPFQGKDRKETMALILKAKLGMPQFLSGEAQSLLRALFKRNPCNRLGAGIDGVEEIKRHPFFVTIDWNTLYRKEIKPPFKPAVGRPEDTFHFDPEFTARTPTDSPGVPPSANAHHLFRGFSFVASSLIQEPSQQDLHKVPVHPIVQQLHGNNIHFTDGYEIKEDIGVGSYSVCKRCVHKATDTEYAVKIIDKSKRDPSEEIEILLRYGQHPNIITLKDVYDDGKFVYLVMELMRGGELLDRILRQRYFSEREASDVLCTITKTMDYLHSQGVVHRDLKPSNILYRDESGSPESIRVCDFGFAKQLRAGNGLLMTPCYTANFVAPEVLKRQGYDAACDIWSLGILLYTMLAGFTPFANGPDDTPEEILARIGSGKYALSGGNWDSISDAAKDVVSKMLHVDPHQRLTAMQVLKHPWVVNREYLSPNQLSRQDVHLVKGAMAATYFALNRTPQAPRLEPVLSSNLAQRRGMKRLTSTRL
UniProt P51813, sequence (whole entry, looked up): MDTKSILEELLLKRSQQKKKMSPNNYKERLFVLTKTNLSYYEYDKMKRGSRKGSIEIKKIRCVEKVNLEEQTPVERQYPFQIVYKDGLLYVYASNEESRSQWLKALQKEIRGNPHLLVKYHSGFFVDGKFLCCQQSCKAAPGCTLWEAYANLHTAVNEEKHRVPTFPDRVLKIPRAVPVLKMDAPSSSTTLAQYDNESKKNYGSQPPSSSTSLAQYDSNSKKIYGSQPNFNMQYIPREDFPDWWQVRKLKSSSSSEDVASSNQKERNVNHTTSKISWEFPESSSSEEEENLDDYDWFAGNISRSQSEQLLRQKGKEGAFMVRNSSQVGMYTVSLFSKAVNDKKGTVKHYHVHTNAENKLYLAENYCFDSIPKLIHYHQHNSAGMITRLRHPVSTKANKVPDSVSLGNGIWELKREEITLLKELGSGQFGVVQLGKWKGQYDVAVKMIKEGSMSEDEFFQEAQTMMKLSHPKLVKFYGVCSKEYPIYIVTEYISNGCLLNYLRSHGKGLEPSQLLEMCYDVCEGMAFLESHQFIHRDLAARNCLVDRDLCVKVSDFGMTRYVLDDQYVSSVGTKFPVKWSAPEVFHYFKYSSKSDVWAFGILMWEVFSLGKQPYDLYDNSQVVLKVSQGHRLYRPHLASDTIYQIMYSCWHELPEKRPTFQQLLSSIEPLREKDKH

Study 1
Organism: Plasmodium berghei
Mode: inhibitor
Cells: Huh-7
Strain: GFP-expressing, liver stage
Concentration: 10 µM
Time: 24 h
Relative to: untreated control
Quantity: infection rate
NC(=O)N1c2ccccc2CC(=O)c2ccccc21: 99.8%
CO[C@H]1C[C@H](O[C@H]2[C@H](C)[C@@H](O[C@@H]3O[C@H](C)C[C@H](N(C)C)[C@H]3O)[C@@H](C)C[C@@]3(CO3)C(=O)[C@H](C)[C@@H](O)[C@@H](C)[C@@H](C)OC(=O)[C@@H]2C)O[C@@H](C)[C@@H]1O: 115%
Cc1cc(CC(=O)O)n(C)c1C(=O)c1ccc(Cl)cc1: 116%
CN(C)CCC(c1ccccc1)c1ccccn1 (stereo not shown): 81%
C#CC1(O)CC[C@H]2[C@@H]3CCC4=CC(=O)CC[C@@H]4[C@H]3CC[C@@]21CC (mixture of isomers): 102%
CC(=O)O[C@H]1C[C@@H]2CC[C@@H]3[C@H](CC[C@@]4(C)[C@H]3C[C@H]([N+]3(C)CCCCC3)[C@@H]4OC(C)=O)[C@@]2(C)C[C@@H]1N1CCCCC1: 113%
CCc1ccc(CCOc2ccc(CC3SC(=O)NC3=O)cc2)nc1 (stereo not shown): 91.4%
O=C(O)c1cc(/N=N/c2ccc(S(=O)(=O)Nc3ccccn3)cc2)ccc1O: 112%

Study 2
SMILES: Cn1nc(C(F)(F)F)cc1-c1cnc(N2CCc3cc(S(=O)(=O)Nc4c(F)cc(Cl)cc4F)cc(N4CCCC4=O)c32)nc1
Observed: cell-free assay
Technique: competition with immobilised ligand
Concentration: 1 µM
Quantity: remaining binding
PLK2 (Homo sapiens, UniProt Q9NYY3): 91%
MAP2K2 (Homo sapiens, UniProt P36507): 84%
EGFR (Homo sapiens, UniProt P00533, G719S): 100%
Ribosomal protein S6 kinase alpha-2, C-terminal kinase domain (RPS6KA2, Homo sapiens, UniProt Q15349): 77%
LATS2 (Homo sapiens, UniProt Q9NRM7): 93%
SNRK (Homo sapiens, UniProt Q9NRH2): 87%
TAOK1 (Homo sapiens, UniProt Q7L7X3): 99%
KIT (Homo sapiens, UniProt P10721, D816V): 100%
BMX (Homo sapiens, UniProt P51813): 81%

Study 3
SMILES: COc1cc(C(=O)N2CCC(N3CCN(C)CC3)CC2)ccc1Nc1ncc2c(n1)N(C)c1ccccc1C(=O)N2C
Quantity: inhibition
MAP3K2 (human); probe labelling, KiNativ ADP probe; human PBMC lysate; concentration not given, LYS1 labelled site: -3.3% and -4.7%
human PBMC; probe labeling, inhibitor, KiNativ profiling, item: ALYATkTLR; cell lysate; 1 µM, LYS1 site, added: ATP acyl-phosphate probe: -0.6%
mouse JNK1/JNK2/JNK3; probe labelling, KiNativ ADP probe; mouse brain lysate; 1 µM, LYS2 site DLkPSNIVVK: -7.4%
ULK3 human; KiNativ profiling; human PBMC; 0.1 µM, LYS2 site, added: ATP acyl phosphate probe: 18.4%
BRSK2 (mouse); probe labelling, KiNativ ATP probe; mouse brain lysate; 0.1 µM, LYS2 labelled site: -0.5%
AKT1 (mouse); probe labelling, KiNativ, item: GTFGkVILVK peptide, ATP loop; brain tissue lysate (mouse); 1 µM, added: ADP acyl-phosphate probe: 2.6%
CDK9 (mouse); probe labelling, KiNativ, item: DMkAANVLITR peptide, LYS2 site; brain tissue lysate (mouse); 0.1 µM, added: ATP acyl-phosphate probe: -20.7%
RSKL1 domain 1 (mouse); probe labelling, inhibitor, KiNativ ActivX ATP probe; mouse brain lysate; 1 µM, kinase domain peptide: -7.2%
SLK human; KiNativ profiling; human PBMC; 0.1 µM, LYS2 site, added: ATP acyl phosphate probe: 32.5%

Study 4
SMILES: CCCCc1c(-c2ccc(OC)cc2)[nH]c2nccnc12
Observed: enzyme activity
Mode: inhibitor
Concentration: 0.5 µM
Relative to: control
Quantity: remaining activity
DDR2 (Homo sapiens, UniProt Q16832): 94.3%
Cyclin-dependent kinase 9, with cyclin K (CDK9, Homo sapiens, UniProt P50750): 56.9%
ROCK1 (Homo sapiens, UniProt Q13464): 99.9%
RPS6KA4 (Homo sapiens, UniProt O75676): 89.4%
CDC42BPB (Homo sapiens, UniProt Q9Y5S2): 92.5%
MINK1 (Homo sapiens, UniProt Q8N4C8): 84.4%
Cyclin-dependent kinase 1, with cyclin A (CDK1, Homo sapiens, UniProt P06493): 65.4%
NEK3 (Homo sapiens, UniProt P51956): 99.1%
MAP2K1 (Homo sapiens, UniProt Q02750): 88.7%
MARK4 (Homo sapiens, UniProt Q96L34): 88.3%
PAK3 (Homo sapiens, UniProt O75914): 106%
MAPK11 (Homo sapiens, UniProt Q15759): 100%
AKT2 (Homo sapiens, UniProt P31751): 93.8%
DCLK2 (Homo sapiens, UniProt Q8N568): 101%
